{"data": "Results pooled from the literature", "note": "Numbered parts are unrelated; each lists some results of a single study. Substitutions count along the parent as printed.", "UniProt P62837, sequence (whole entry, looked up)": "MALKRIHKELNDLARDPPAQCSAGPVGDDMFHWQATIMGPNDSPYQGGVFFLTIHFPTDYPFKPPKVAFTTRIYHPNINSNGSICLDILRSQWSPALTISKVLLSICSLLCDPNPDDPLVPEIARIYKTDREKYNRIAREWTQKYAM"}
{"data": "Series 1", "target": "HLA class I histocompatibility antigen, A alpha chain, allele A*25:01 (Homo sapiens, UniProt P04439)", "observed": "peptide-MHC binding", "form": "peptide", "concentration": "concentration not given"}
{"Sequence": "MSADNAGAL", "binding": "inactive"}
{"Sequence": "WLAGFEPSE", "binding": "inactive"}
{"Sequence": "SFWFFHPPY", "binding": "inactive"}
{"data": "Series 2", "target": "CCNB1, cyclin fold, Cln2 fusion (human)", "method": "yeast growth competition, sequencing", "matrix": "yeast", "notes": "strong parent motif", "baseline": "not given", "direction": "higher = stronger binding", "parent": "viral docking peptide; TSVRRALFTGGSD"}
{"Change": "TSKRRALFTGGSD [V3K]", "normalised enrichment score": 0.494}
{"Change": "TSVRRALTTGGSD [F8T]", "normalised enrichment score": -0.0695}
{"Change": "TGVRRALFTGGSD [S2G]", "normalised enrichment score": 2.57}
{"Change": "TSVRRYLFTGGSD [A6Y]", "normalised enrichment score": -0.0941}
{"Change": "TSVRTALFTGGSD [R5T]", "normalised enrichment score": 0.313}
{"Change": "THVRRALFTGGSD [S2H]", "normalised enrichment score": 1.51}
{"Change": "TSVTRALFTGGSD [R4T]", "normalised enrichment score": 1.05}
{"Change": "TSVRRALFTNGSD [G10N]", "normalised enrichment score": 2.71}
{"Change": "TSVRRVLFTGGSD [A6V]", "normalised enrichment score": 1.06}
{"Change": "TSVRRALDTGGSD [F8D]", "normalised enrichment score": -0.0663}
{"Change": "TSVRRFLFTGGSD [A6F]", "normalised enrichment score": 0.216}
{"Change": "TSVRRALFTGGWD [S12W]", "normalised enrichment score": 1.96}
{"Change": "TSVRRALFCGGSD [T9C]", "normalised enrichment score": 1.78}
{"Change": "TSNRRALFTGGSD [V3N]", "normalised enrichment score": -0.1}
{"Change": "TSVRRAWFTGGSD [L7W]", "normalised enrichment score": 0.459}
{"data": "Series 3", "target": "TAR DNA-binding protein 43, full length, His tag (TARDBP, Homo sapiens, UniProt Q13148, residues 1-414)", "method": "RNA Bind-n-Seq", "form": "RNA", "matrix": "in vitro", "concentration": "20 nM", "notes": "6-mer, flanks averaged, single round", "together with": "150 mM KCl", "baseline": "input library", "direction": "higher = stronger binding"}
{"Strand": "AUAUAU", "6-mer enrichment (R)": 0.625}
{"Strand": "GAACGC", "6-mer enrichment (R)": 0.873}
{"Strand": "GAAGUU", "6-mer enrichment (R)": 0.748}
{"Strand": "GACGUU", "6-mer enrichment (R)": 0.75}
{"Strand": "UAACCC", "6-mer enrichment (R)": 0.606}
{"Strand": "AAGCAA", "6-mer enrichment (R)": 0.672}
{"Strand": "AACUUC", "6-mer enrichment (R)": 0.572}
{"Strand": "UGCCGA", "6-mer enrichment (R)": 0.817}
{"data": "Series 4", "target": "Centromere-binding protein 1, full length, N-terminal tag (CBF1, Saccharomyces cerevisiae, UniProt P17106, residues 1-351)", "method": "protein-binding microarray", "form": "double-stranded DNA, one strand shown", "matrix": "in vitro", "concentration": "0.8 µM", "notes": "whole 60-bp probe, no competitor", "direction": "higher = stronger binding", "constant ends, left off below": "… GTCTTGATTCGCTTGACGCTGCTG", "UniProt P17106, sequence (whole entry, looked up)": "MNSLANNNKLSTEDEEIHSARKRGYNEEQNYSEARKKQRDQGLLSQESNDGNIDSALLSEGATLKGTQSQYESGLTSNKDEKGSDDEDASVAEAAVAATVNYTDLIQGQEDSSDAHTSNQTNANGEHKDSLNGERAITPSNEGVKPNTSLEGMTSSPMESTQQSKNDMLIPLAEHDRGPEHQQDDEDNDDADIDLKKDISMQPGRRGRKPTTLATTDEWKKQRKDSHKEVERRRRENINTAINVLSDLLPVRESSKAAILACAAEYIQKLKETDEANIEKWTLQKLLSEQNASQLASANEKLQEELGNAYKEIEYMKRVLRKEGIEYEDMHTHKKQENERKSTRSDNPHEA"}
{"Strand": "CTACGAAGAAAGCACGTGAGGATTGAAGAAAACTTC", "fluorescence intensity [a.u.]": 5580}
{"Strand": "CTAAGTATCTTTGAGCACGTATCAGATAACTAATTC", "fluorescence intensity [a.u.]": 550}
{"Strand": "CTACATATTCATATGCACGTTCTTTTTTTAATTTTC", "fluorescence intensity [a.u.]": 671}
{"Strand": "CCTAACTACTATACATGTGAGCTATAGCTTCGTACA", "fluorescence intensity [a.u.]": 832}
{"Strand": "CTATAGTAAAGTGCTGATGTCTTCTGAGTTGTCTTC", "fluorescence intensity [a.u.]": 522}
{"Strand": "GAATTAATGGCAGTGCACATGTTTAAGGACGTTTAG", "fluorescence intensity [a.u.]": 660}
{"Strand": "CTATAGCAAATTTATCATGAGAGCGCTTCAGTGTTC", "fluorescence intensity [a.u.]": 526}
{"Strand": "GAATATTGTTATTCATTCGTGATAGCTGCCCCTTAG", "fluorescence intensity [a.u.]": 520}
{"data": "Other studies, line by line", "B1": "DTX1 RING domain (UniProt Q86Y01); chain QKVKNPPDEDCTICMERLVTASGYEGVLRHKGVRPELVGRLGRCGHMYHLLCLVAMYSNGNKDGSLQCPTCKAIYGEKTGTQ"}
{"Sequence": "B1 (DTX1 RING domain)", "target": "UBE2D2 UBC core domain (UniProt P62837)", "assay": "yeast two-hybrid", "system": "yeast", "setting": "mostly zero background", "scale": "baseline: not given, higher = stronger interaction", "endpoint": "lacZ reporter activity", "value": 12300}
{"note": "A few entries again (series 2):"}
{"Change": "TSKRRALFTGGSD [V3K]", "normalised enrichment score": 0.494}
{"Change": "TSVRRALTTGGSD [F8T]", "normalised enrichment score": -0.0695}
{"Change": "TGVRRALFTGGSD [S2G]", "normalised enrichment score": 2.57}
{"Change": "TSVRRYLFTGGSD [A6Y]", "normalised enrichment score": -0.0941}
{"Change": "TSVRTALFTGGSD [R5T]", "normalised enrichment score": 0.313}
{"Change": "THVRRALFTGGSD [S2H]", "normalised enrichment score": 1.51}
